Measured values gathered from unrelated publications.
Numbered parts are unrelated; each lists some results of a single study. Substitutions count along the parent as printed.

Study 1
Target: UBE2L3 UBC core domain (UniProt P68036)
Sequence of UniProt P68036 (whole entry, looked up): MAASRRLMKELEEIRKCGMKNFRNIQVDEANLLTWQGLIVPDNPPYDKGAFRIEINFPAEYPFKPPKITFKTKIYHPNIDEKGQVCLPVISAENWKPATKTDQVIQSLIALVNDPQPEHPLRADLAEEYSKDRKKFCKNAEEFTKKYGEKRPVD
Technique: yeast two-hybrid
Medium: yeast
Setting: mostly zero background
Relative to: not given
Direction: higher = stronger interaction
B1: NEURL1 RING domain (UniProt O76050); chain VTPGLGQWSDECTICYEHAVDTVIYTCGHMCLCYACGLRLKKALHACCPICRRPIKDIIKT
B2: TRAF5 RING domain (UniProt O00463); chain FVERLEERYKCAFCHSVLHNPHQTGCGHRFCQHCILSLRELNTVPICPVDKEVIKSQEVFK
B3: RNF111 RING domain (UniProt Q6ZNA4); chain EGTEEDTEEKCTICLSILEEGEDVRRLPCMHLFHQVCVDQWLITNKKCPICRVDIEAQLPSE
B4: RNF38 RING domain (UniProt Q9H0F5); chain PNNHQSEQTLCVVCMCDFESRQLLRVLPCNHEFHAKCVDKWLKANRTCPICRADASEVHRDS
B5: TRIM43 RING domain (UniProt Q96BQ3); chain FSHAFQKELTCVICLNYLVDPVTICCGHSFCRPCLCLSWEEAQSPANCPACREPSPKMDFKT
B6: TRIM40 RING domain (UniProt Q6P9F5); chain LQKDNQEEGVCPICQESLKEAVSTNCGHLFCRVCLTQHVEKASASGVFCCPLCRKPCSEEVLG
B7: TRIM5 RING domain (UniProt Q9C035); chain LREVKLSPEGQKVDHCARHGEKLLLFCQEDGKVICWLCERSQEHRGHHTFLTEEVAREYQVKL
Molecule	lacZ reporter activity
B1 (NEURL1 RING domain)	0
ASLPTSEEDLCPICYAHPISAVFQPCGHKSCKACINQHLMNNKDCFFCKTTIVSVEDWE (RNF123 RING domain (UniProt Q5XPI4))	0
B2 (TRAF5 RING domain)	0
B3 (RNF111 RING domain)	0
DHGAVGQEMCCPICCSEYVKGEVATELPCHHYFHKPCVSIWLQKSGTCPVCRCMFPPPL (PJA1 RING domain (UniProt Q8NG27))	0
B4 (RNF38 RING domain)	0
B5 (TRIM43 RING domain)	0
GAAPGPEAAECLVCSELALLVLFSPCQHRTVCEECARRMKKCIRCQVVVSKKLRPD (MIB2 RING domain (UniProt Q96AX9))	0
FQGDVDEDLICPICSGVLEEPVQAPHCEHAFCNACITQWFSQQQTCPVDRSVVTVAHLRP (RNF41 RING domain (UniProt Q9H4P4))	0
B6 (TRIM40 RING domain)	0
QVDKAVFHMQSVKCLKCQEQKRAVLPCQHAALCELCAEGSECPICQPGRAHTLQS (UNK RING domain (UniProt Q9C0B0))	0
B7 (TRIM5 RING domain)	0

Study 2
Target: CCND3, cyclin fold, Cln2 fusion (human)
Technique: yeast growth competition, sequencing
Medium: yeast
Setting: weak parent motif
Relative to: not given
Direction: higher = stronger binding
Starting sequence: CDC6 docking peptide (human); TLKGRRLVFDNQL; partner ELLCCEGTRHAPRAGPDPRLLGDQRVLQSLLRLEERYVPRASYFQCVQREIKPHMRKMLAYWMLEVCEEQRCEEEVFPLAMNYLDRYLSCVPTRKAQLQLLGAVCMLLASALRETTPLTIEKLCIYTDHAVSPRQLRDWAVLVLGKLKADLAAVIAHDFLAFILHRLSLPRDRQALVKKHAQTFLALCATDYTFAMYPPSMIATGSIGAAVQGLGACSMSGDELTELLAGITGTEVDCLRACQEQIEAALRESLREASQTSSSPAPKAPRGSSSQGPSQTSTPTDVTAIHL
Substitution	normalised enrichment score
TLAGRRLVFDNQL [K3A]	0.126
TLKGRRLVFDNQD [L13D]	0.093
KLKGRRLVFDNQL [T1K]	0.189
WLKGRRLVFDNQL [T1W]	0.234
TSKGRRLVFDNQL [L2S]	0.00951
TLIGRRLVFDNQL [K3I]	0.196
TLKGRRRVFDNQL [L7R]	0.169
TLKHRRLVFDNQL [G4H]	0.145
TLKGRRLVFDNQI [L13I]	0.115
LLKGRRLVFDNQL [T1L]	0.178
TLKGRNLVFDNQL [R6N]	0.113
TLKGRRLVFANQL [D10A]	0.0595
TTKGRRLVFDNQL [L2T]	0.0343
TGKGRRLVFDNQL [L2G]	0.124
TLKGRRLVFDNQH [L13H]	0.0249
TLSGRRLVFDNQL [K3S]	0.131
TLKGRRLVFENQL [D10E]	-0.0464
TLCGRRLVFDNQL [K3C]	0.154

Study 3
Target: RNA binding protein fox-1 homolog 2, RRM domain, GST-SBP tag (RBFOX2, Homo sapiens, UniProt O43251-10, residues 100-194)
Technique: RNA Bind-n-Seq
Molecule type: RNA
Medium: in vitro
Concentration: 365 nM
Setting: natural RNA segment, single round, ends assumed
Relative to: no-protein control
Direction: higher = stronger binding
Target sequence (chain): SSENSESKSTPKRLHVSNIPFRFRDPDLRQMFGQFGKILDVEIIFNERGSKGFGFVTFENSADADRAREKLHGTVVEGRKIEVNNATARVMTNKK
Strand	RBNS enrichment (R)
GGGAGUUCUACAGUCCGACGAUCAGAAACUUUGAAUUUUUAAGAAAGGCUUCUAACUAAUUGCUUUAAUCUAUCUAUAGACUGUAGUAAGAUGCAAUGUGGCUCUUUUCUUUUAGGUUGUGUGCAGUUGAUAUUGGAAUUCUCGGGUGCCAA	0.579
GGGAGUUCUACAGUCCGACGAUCGCUGCCAUUCUUCAUCUCCACUGAGAGCCAGAGCUGGUAGGAGCCGAGUGCCACAGGCAUUCUGCAUUGCUCUACUCUUAGGUUUGUGUGUGUGAUCCUUCCCCUCCCUGUGGAAUUCUCGGGUGCCAA	0.455
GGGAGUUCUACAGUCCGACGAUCUUCCCAUAUGCCCCUGGAGCCCCACUUAUUGAGGCCAGCAGAAUAGGUGCAGAGAUGAAGUGAGCUUAGAGAUGUUGCAAAUGCUCUUUAUCCCUUCAGCUCUCUGAUCUUGGAAUUCUCGGGUGCCAA	0.521
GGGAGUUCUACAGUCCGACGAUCUCAUUCAGUCAGAAUUUAGGAUUCAGUCAUUGGCAGGUAUCUAUGCAUUCGUAGAACUUCUAAGGGUCCCAGGAUCACUUUUAAGGGAUUUUUUUUUUAUAGUUUAAAUAUGGAAUUCUCGGGUGCCAA	0.593
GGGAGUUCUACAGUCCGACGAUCCCGGCUGAUGGGGGUUUGCUCAGCACUGUGCCAGUGGAAGCAGGUGUAUUGUGGGCAGUUUUGUCAUUGUCCUCAAGUCCUUCGCAGACAGUGCACAGCCUGCUGUCUGCUGGAAUUCUCGGGUGCCAA	0.487
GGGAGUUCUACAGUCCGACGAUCUCCUUCGAGUGCACACUGUACCUCUGGAUGCCCGGGAUGGCAAUGAGGCAGAGCCUGAUGACGAUCAUUUUUCCAUUGGCGUGAGCUCCCGCCUGGAUGGACUGAGGAAUUGGAAUUCUCGGGUGCCAA	0.419
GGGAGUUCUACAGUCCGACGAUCUACAAAAAGACUGGCUAACCCCUCUUCCUAUUACCUUGAUCUCUUCCCCCAACUUCCUAACACUUAUUAAUUUAUGAAACUGUUUUUCUCAGCGCAGUUUUGUUUUGUGUUGGAAUUCUCGGGUGCCAA	0.828
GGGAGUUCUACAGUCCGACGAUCAAAGUCCCUAAUUCACAACCUCCUUGAUCUUAUGACCCUUGAAAACCUCAAGACCGAAGCCUGACCAUAAGUUGGAAAGCUCUCAUUACCCUCUUUAACAACAUAAAUUCUGGAAUUCUCGGGUGCCAA	0.655
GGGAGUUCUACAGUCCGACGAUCGACCAGCCUGACCAAACAUGGCGAAACCCCAUCUGUACUGAAAAUACAAAAAUUAGGCAUGGUGGUGCAUGCCUGUAGUUCCAGCUACUUGGGAGGCUGAGACAGGCGAAUGGAAUUCUCGGGUGCCAA	0.574
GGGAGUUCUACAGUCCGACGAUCCUGUCCAUAGUGAGUGAAAGGUGGCAGGCAGGGGCCUACAGCUCCUAGGGAAUGGAGAAUUCAUGUGAAGCCGAAUGAAGGAUCUUAUCUUAUACUGUCCCCCUUUCUAAUGGAAUUCUCGGGUGCCAA	7.48
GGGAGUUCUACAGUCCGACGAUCAGGGGCUUCCGGCUCCCUUCUACAGCCUCAGAAACCAGACUCGUUCUUCUGGGAACCCUGCCCACUCCCAGGACCAAGAUUGGCCUGAGGCUGCACUAAAAUUCACUUAGUGGAAUUCUCGGGUGCCAA	0.339
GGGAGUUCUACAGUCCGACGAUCCAAUAGAUACCGCUGAAGGAUCCUUGGAGUCCAUCAUCCAUAUCUCAGUGGUCAUUCUUCUGCCUUCCAAAAUCUUAGUUUUAUAAAAGCAUUGUGUAUGACAGAGUGGCUGGAAUUCUCGGGUGCCAA	0.784

Study 4
Target: ABI1, truncated, D143A, DHFR fusion (Arabidopsis thaliana)
Technique: DHFR PCA, deep sequencing
Medium: yeast
Setting: methotrexate growth selection, single substitutions
With: (+)-ABA 1.4 µM
Relative to: wild-type fitted maximum
Direction: higher = stronger binding
Starting sequence: PYL1, truncated, DHFR fusion (Arabidopsis thaliana); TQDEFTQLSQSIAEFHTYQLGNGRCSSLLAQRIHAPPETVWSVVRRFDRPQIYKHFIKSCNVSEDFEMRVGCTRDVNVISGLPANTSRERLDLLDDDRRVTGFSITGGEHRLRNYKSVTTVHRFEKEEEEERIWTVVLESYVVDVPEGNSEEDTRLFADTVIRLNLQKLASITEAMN; partner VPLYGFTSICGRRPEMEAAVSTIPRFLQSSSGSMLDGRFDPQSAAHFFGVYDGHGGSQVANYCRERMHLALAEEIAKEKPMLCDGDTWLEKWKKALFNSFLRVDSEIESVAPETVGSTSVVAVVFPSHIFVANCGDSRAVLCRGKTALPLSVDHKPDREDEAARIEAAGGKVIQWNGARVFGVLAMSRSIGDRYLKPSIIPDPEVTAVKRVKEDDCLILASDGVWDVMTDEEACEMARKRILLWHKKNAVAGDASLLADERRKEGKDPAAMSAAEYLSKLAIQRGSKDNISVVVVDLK
Substitution	relative binding score [%]
L82S	1.23
T135P	3.38
Y18G	-7.84
S27L	4.35
S9K	77.7
R155N	-13.3
S150F	-31.9
E152M	30.6
R99H	62.6
E128R	44.4
E109I	10.1
N165L	12.5
T135H	-16.2

Study 5
Target: Prothrombin, mature alpha-thrombin (F2, Homo sapiens, UniProt P00734)
Technique: aptamer microarray, sandwich
Molecule type: DNA with 2'F-ANA
Medium: in vitro
Concentration: 200 nM
Setting: whole 15-mer aptamer, many near background
With: Cy3 exosite-II aptamer, 400 nM
Direction: higher = stronger binding
Strand: GGTTGGTGTGGTTGG
Modification	mean fluorescence intensity
2'F-ANA at 6 7 8 9 10 12 13 15	176 a.u.
2'F-ANA at 2 5 6 8 10 11 12 13 14 15	89.6 a.u.
2'F-ANA at 1 3 4 5 8 9 10 13 15	47.1 a.u.
2'F-ANA at 2 3 5 7 8 9 10 11 12 13 15	62.8 a.u.
2'F-ANA at 1 2 4 5 7 8 9 10 11 15	49.5 a.u.
2'F-ANA at 1 3 5 7 8 9 14	51.5 a.u.
2'F-ANA at 1 2 5 6 8 11 13 15	52.3 a.u.
2'F-ANA at 1 4 5 8 11 12 15	87.4 a.u.
2'F-ANA at 1 3 5 11	139 a.u.
2'F-ANA at 2 3 5 6 10 13 14	127 a.u.
2'F-ANA at 2 4 5 7 10 11	46 a.u.
2'F-ANA at 1 6 14 15	63.5 a.u.
2'F-ANA at 4 5 6 8 9 10 11 12 13 15	48.7 a.u.
2'F-ANA at 4 7 8 12 13	533 a.u.
2'F-ANA at 1 3 5 6 8 9 12	131 a.u.
2'F-ANA at 1 3 5 6 8 9 11 12 13 14 15	52 a.u.
2'F-ANA at 5 6 7 8 12 14 15	75.9 a.u.
2'F-ANA at 3 7 8 9 11 12 14	722 a.u.
2'F-ANA at 5 6 7 9 13 14 15	45.7 a.u.
2'F-ANA at 2 3 7 8 9 10 13 15	343 a.u.

For quick reference, copied from above (study 4):
Substitution	relative binding score [%]
R155N	-13.3
S150F	-31.9
E152M	30.6
R99H	62.6
E128R	44.4
E109I	10.1
N165L	12.5
